Assay results pooled from the literature.
Lines come from different studies, so protocols differ. Converted amounts (≈) assume the structure as drawn.
Organism: Saccharomyces cerevisiae

| SMILES | assay | test system | conditions | scale | measurement | value |
| --- | --- | --- | --- | --- | --- | --- |
| Cc1ccc(S(=O)(=O)n2cc3c4c2C(=O)C(N)=CC4=NCC3)cc1 | cell growth, liquid culture | BY4741 | 100 µM, 24 h |  | inhibition | 72.8% |
| CC1=NN(c2cccc(F)c2)C(=O)/C1=N\Nc1ccc(S(N)(=O)=O)cc1 |  |  | 500 µg/mL |  | glucose uptake | 39.8% |
| CCCC(C)Oc1cccc(NC(=O)c2cccnc2)c1 (stereo not drawn) | microbial growth |  |  |  | MIC | ~16 µg/mL (≈ 56.3 µM) |
| O=C(c1ccc(Cl)c([N+](=O)[O-])c1)N1CCN(c2ccc(F)cc2)CC1 | endocytic recycling | wild type | 20 µM, 2 h, 30 °C | relative to: cells | cells with PM GFP-Snc1 | 4% |
| O=C1C(=O)c2[nH]cc3c2C(=C1Cl)NCC3 | cell growth, liquid culture | BY4741 | 100 µM, 24 h |  | inhibition | 0% |
| O=C(c1ccc(F)c([N+](=O)[O-])c1)N1CCN(c2ccccc2F)CC1 | microbial growth |  |  |  | IC50 | > 20 µM |
| COc1ccc(NC(=O)COc2cccc(OCC(C)C)c2)cc1 | microbial growth |  |  |  | MIC | 1 µg/mL (≈ 3.04 µM) |
| COC1=CC2=NCCc3c[nH]c(c32)C1=O | cell growth, liquid culture | BY4741 | 100 µM, 24 h |  | inhibition | 17.9% |
| O=C(c1ccc(Cl)c([N+](=O)[O-])c1)N1CCN(c2ccccc2F)CC1 | endocytic recycling | wild type | 20 µM, 2 h, 30 °C | relative to: cells | cells with PM GFP-Snc1 | 5% |
| O=C1C(NCCc2ccc(O)cc2)=CC2=NCCc3c(Br)[nH]c1c32 | cell growth, liquid culture | BY4741 | 100 µM, 24 h |  | inhibition | 7.9% |
| CC1=NN(c2ccccc2F)C(=O)/C1=N\Nc1ccc(S(N)(=O)=O)cc1 |  |  | 100 µg/mL |  | glucose uptake | 43.2% |
| COc1ccccc1N1CCN(C(=O)c2ccc(Cl)c([N+](=O)[O-])c2)CC1 | growth | ho∆/HO diploid control |  |  | IC50 | > 100 µM |

A few entries again:
| SMILES | assay | test system | conditions | scale | measurement | value |
| --- | --- | --- | --- | --- | --- | --- |
| O=C(c1ccc(Cl)c([N+](=O)[O-])c1)N1CCN(c2ccccc2F)CC1 | endocytic recycling | wild type | 20 µM, 2 h, 30 °C | relative to: cells | cells with PM GFP-Snc1 | 5% |
| CC1=NN(c2cccc(F)c2)C(=O)/C1=N\Nc1ccc(S(N)(=O)=O)cc1 |  |  | 500 µg/mL |  | glucose uptake | 39.8% |
